Assay results collected from several papers.
Every numbered part comes from another study and shows a few of its results, in no order. Positions count from the first letter of the parent shown.

Block 1
Target: MAFG, bZIP domain (human)
Method: DHFR protein complementation
Medium: yeast
Notes: single substitutions, most at no-binding floor
Relative to: wild-type JUN-FOS pair
Direction: higher = stronger binding
Parent: JUN, bZIP domain (human); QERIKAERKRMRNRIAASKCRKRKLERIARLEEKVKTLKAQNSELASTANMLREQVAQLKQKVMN; partner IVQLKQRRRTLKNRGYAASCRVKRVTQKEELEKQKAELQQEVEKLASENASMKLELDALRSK
Variant	binding fitness
K36P	-1.5 natural log
E33C	-1.52 natural log
M51E	-1.12 natural log
L52T	-1.52 natural log
R30V	-1.28 natural log
R30Y	-1.6 natural log
Q55Y	-1.48 natural log
L52I	-1.52 natural log
A40H	-1.54 natural log
L45H	-1.48 natural log
A49R	-1.43 natural log
A40P	-1.49 natural log
L59G	-1.41 natural log
R30L	-1.47 natural log
L31K	-1.58 natural log
L59P	-1.39 natural log
E44H	-1.56 natural log
I28G	-1.49 natural log
T48G	-1.48 natural log
A49T	-1.47 natural log
E32F	-1.42 natural log
T37E	-1.21 natural log
L38C	-1.26 natural log
A46I	-1.38 natural log
A57H	-1.42 natural log

Block 2
Target: ABI1, truncated, D143A, DHFR fusion (Arabidopsis thaliana)
Method: DHFR PCA, deep sequencing
Medium: yeast
Notes: methotrexate growth selection, single substitutions
Together with: (+)-ABA 0.11 µM
Relative to: wild-type fitted maximum
Direction: higher = stronger binding
Parent: PYL1, truncated, DHFR fusion (Arabidopsis thaliana); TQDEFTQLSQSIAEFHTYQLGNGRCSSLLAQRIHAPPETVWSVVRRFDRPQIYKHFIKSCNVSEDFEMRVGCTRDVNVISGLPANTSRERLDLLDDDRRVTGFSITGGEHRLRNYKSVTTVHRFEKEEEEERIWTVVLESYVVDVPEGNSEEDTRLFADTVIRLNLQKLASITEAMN; partner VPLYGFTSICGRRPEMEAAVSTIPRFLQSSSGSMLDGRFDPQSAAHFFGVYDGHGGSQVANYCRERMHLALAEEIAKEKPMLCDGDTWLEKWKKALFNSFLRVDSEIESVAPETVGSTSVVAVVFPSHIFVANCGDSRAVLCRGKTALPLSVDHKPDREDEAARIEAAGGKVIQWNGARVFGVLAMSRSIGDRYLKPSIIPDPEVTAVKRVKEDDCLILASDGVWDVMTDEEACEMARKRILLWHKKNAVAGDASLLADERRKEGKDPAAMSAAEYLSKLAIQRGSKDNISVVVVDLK
Variant	relative binding score
R69A	28.5%
E127A	39.5%
D159H	-4.35%
S104L	-5.65%
E14V	-0.492%
R132H	38.2%
L91I	17.7%
C60W	-11%
G21V	26.6%
L164Y	2.48%
F103T	-4.76%
Y115M	-3.24%
R45S	1.87%

Block 3
Target: Interferon regulatory factor 7, full length, phosphomimetic (IRF7, Homo sapiens, UniProt Q92985, residues 1-503, S101K/S471D/S472D/S475D/S476D/S477D/S483D/S484D/S487D)
Method: protein-binding microarray
Molecule type: double-stranded DNA, one strand shown
Medium: in vitro
Concentration: 250 nM
Notes: 60-bp whole probe
Together with: salmon DNA 0.4 mg/ml
Relative to: random background probes
Direction: higher = stronger binding
Shared flanks, not repeated: GCCTAGCAC … GTCTTGATTCGCTTGACGCTGCTG
Residues (chain): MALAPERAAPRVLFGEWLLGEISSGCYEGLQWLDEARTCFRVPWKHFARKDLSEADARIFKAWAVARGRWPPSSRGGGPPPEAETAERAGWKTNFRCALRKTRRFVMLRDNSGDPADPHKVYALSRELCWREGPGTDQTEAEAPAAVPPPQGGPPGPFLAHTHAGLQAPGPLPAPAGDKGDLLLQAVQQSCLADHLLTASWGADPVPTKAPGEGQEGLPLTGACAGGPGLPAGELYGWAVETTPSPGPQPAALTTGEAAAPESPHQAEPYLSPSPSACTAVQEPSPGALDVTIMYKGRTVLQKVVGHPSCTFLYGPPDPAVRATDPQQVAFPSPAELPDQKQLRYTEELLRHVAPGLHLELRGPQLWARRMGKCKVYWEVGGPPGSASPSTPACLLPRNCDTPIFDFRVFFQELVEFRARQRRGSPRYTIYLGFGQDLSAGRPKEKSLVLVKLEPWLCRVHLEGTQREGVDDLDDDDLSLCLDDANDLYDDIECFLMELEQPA
Sequence	log fluorescence [z-score]
TCATATATTTGCTTCAGACTGTGCTAG	0.738
GACGAGATCAGTCTCGAGACGTGCTAG	0.705
TAGTTTTACTTTCTATGTCTGTGCTAG	2.98
GTCCACTCCAGACCGTTTGCGTGCTAG	1.13
TTAGATCTCAGTTTCGATAAGTGCTAG	3.78
TCATCCCTAATTCTGATACTGTGCTAG	1.19
CCACTTTTATTTTCAGTATTGTGCTAG	1.18
GACGATATCGGTTTCGAGACGTGCTAG	4.68
TTATGACTGCTTTTCCTTTAGTGCTAG	0.416
GCTGGTCACTCTCTGGGCTGGTGCTAG	-0.939
GAAAATCAACCAGGTGGTGTGTGCTAG	-0.42
TTAGAATTCGGGACTGGATTAGTGCTA	-0.137
GACGGTCTTGGTATCGGGACGTGCTAG	0.113
GACTAACTGAGTCTCGAGACGTGCTAG	0.652
GACGAATTCAGACTGGAGACGTGCTAG	-0.178
GACGGATTGCTACTGCTGACGTGCTAG	-0.616
GACGAACGGAGTATCGAGACGTGCTAG	-0.164
TCAATTCTCATTTCCAAACTGTGCTAG	1.63
TTGGGTATCGGACTGGGTTAGTGCTAG	-0.0256
TCAACTCTAATATTGAGACTGTGCTAG	0.129
GACGATCTCAGTTTTGAGACGTGCTAG	0.281
AAGCAAGGTGGAGAAGAGAAGTGCTAG	-1.07
ACCCTGCCTAAAGCTAGTTTGTGCTAG	-0.273
TTAGGTTTCGGGTTGCGGTTAGTGCTA	12.9
GACGGTTTCGGTTCCTGGACGTGCTAG	12.3

Block 4
Target: Fragile X messenger ribonucleoprotein 1, C-terminal low-complexity region (Fmr1, Mus musculus, UniProt P35922)
Method: RNA Bind-n-Seq
Molecule type: RNA
Medium: in vitro
Concentration: 200 nM
Notes: whole 134-nt RNA, ends assumed
Together with: 150 mM KCl
Relative to: input library
Direction: higher = stronger binding
Sequence	log2 enrichment
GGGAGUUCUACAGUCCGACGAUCUCAAGUCCUGUGCUACACAUCGUAUGUACCGAAUCGGAAAGGAAAGGUUUUUGGAAAGUAUUAUGUUACGCCGUUCGGAUCUGCACUUCCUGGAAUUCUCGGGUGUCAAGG	-0.884
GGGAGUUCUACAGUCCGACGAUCCUCAAGUCCUGUGCUACACAUCGUAUGUACCGAAUCGGUGGAGGUUUUUUUGGAAAGUAUUAUGUUACGCCGUUCGGAUCUGCACUUCCAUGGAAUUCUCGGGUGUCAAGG	-0.226
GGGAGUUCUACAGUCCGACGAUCAUUCUAUAAAUGGCAAGUAAGCCUGAAGUGAGGAUACUGCAAUUUUCGGAGAAAAGAACAGCAGCUCUUUAAGUGUUUGCAUUUUCUAUUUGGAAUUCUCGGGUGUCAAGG	-1.22
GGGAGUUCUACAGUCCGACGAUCCACAGACAACACGCACCCACACAGACACAGCGGGAAGGGGUUGGGAUGGGGACAGGGUGCACAGCAGGGCGGGGUAGGACCCCAGCCCCUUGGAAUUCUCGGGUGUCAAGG	1.28
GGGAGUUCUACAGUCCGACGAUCUGGGAGGUGGAUUCUGUUUAUUUUUUUAGCUCAUUUCCAGGGGUGGGAAUUUUUUUUUAAUAUGUGUCAUGAAUAAAGUUGUUUUUGAAAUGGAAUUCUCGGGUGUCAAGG	0.115
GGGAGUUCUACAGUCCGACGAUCCCUCAAGUCCUGUGCUACACAUCGUAUGUACCGAAUCGGCCGGGGCCGGCCGGAAAGUAUUAUGUUACGCCGUUCGGAUCUGCACUUCCAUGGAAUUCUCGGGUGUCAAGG	-0.273
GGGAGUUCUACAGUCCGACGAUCUGUGCUACACAUCGUAUGUACCGAAUCGUGUGUGUGUGUGUGUGUGUGUGUGUGUGUGUGUGUAAAGUAUUAUGUUACGCCGUUCGGAUCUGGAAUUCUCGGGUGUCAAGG	0.741
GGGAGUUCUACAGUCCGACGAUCCAAGUCCUGUGCUACACAUCGUAUGUACCGAAUCGGAAAGGAAAAAGGUUUUUGGAAAGUAUUAUGUUACGCCGUUCGGAUCUGCACUUCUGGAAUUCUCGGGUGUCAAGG	-0.976
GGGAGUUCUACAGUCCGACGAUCGCAGGAAGUAGAAACAAAUGGAAAUGCUUCGGAUAGUGGCAGGGGUGGGGGUUGCUAAGGAAAGGGUGGGAUGGGAGUGGGUAAAGAGUUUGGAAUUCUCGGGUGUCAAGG	0.787
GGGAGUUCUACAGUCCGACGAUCUGUGGCCGCAGGACGAGUACAUCGUGGAGUACUCACUAGAGUAUGGCUUCCUUCGCCUGUCGCAGGCCACCCGCCAGCGCCUGAGCAUCCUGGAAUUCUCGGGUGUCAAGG	-0.0212
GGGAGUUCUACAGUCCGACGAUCCUCAAGUCCUGUGCUACACAUCGUAUGUACCGAAUCGGCCGGGGCCGGCCGGGGAAAGUAUUAUGUUACGCCGUUCGGAUCUGCACUUCCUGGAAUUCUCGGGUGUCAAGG	-0.406
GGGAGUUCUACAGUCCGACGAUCCCUGUGCUACACAUCGUAUGUACCGAAUCGGGCCCCCCCGGGCCCCCCCGGCCCCCCCGGAAAGUAUUAUGUUACGCCGUUCGGAUCUGCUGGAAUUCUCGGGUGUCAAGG	-0.0418
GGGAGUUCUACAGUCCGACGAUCUAGCAAGCCAAAUUACAGCAGCAGAUGGACCUGCAGAAAAAUCACAUUUUCCGUCUGACUCAAGGACUGCAAGAAGCUCUAGAUCGGGCUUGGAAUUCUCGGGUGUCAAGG	-1.99
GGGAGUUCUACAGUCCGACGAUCCAGCAGCAGAGUGAGUGGAUUUUAUUUUUCGUUAUUGUUGGUGGUUUAAAAAAUUCCCCCCAUGUAAUUAUUGUGAACACCUUGCUUUGUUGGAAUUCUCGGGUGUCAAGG	-0.13

Block 5
Target: CCNE1, cyclin fold, Cln2 fusion (human)
Method: yeast growth competition, sequencing
Medium: yeast
Notes: weak parent motif
Relative to: not given
Direction: higher = stronger binding
Parent: PKN2 docking peptide (human); DSTVTKLDFDLEP
Variant	normalised enrichment score
L11A	0.129
E12A	0.165
T5A	-0.011
F9A	-0.189
L7A	0.0407
T3A	0.729
D1A	0.294

Excerpt of the above (block 4):
Sequence	log2 enrichment
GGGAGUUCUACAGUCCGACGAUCCUCAAGUCCUGUGCUACACAUCGUAUGUACCGAAUCGGUGGAGGUUUUUUUGGAAAGUAUUAUGUUACGCCGUUCGGAUCUGCACUUCCAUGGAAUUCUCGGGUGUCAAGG	-0.226
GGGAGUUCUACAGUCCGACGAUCAUUCUAUAAAUGGCAAGUAAGCCUGAAGUGAGGAUACUGCAAUUUUCGGAGAAAAGAACAGCAGCUCUUUAAGUGUUUGCAUUUUCUAUUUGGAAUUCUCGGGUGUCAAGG	-1.22
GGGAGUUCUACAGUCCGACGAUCCACAGACAACACGCACCCACACAGACACAGCGGGAAGGGGUUGGGAUGGGGACAGGGUGCACAGCAGGGCGGGGUAGGACCCCAGCCCCUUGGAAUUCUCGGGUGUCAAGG	1.28
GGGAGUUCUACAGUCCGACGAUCUGGGAGGUGGAUUCUGUUUAUUUUUUUAGCUCAUUUCCAGGGGUGGGAAUUUUUUUUUAAUAUGUGUCAUGAAUAAAGUUGUUUUUGAAAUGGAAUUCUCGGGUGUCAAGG	0.115
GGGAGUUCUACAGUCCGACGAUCCCUCAAGUCCUGUGCUACACAUCGUAUGUACCGAAUCGGCCGGGGCCGGCCGGAAAGUAUUAUGUUACGCCGUUCGGAUCUGCACUUCCAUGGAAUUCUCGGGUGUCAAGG	-0.273
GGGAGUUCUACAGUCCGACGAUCUGUGCUACACAUCGUAUGUACCGAAUCGUGUGUGUGUGUGUGUGUGUGUGUGUGUGUGUGUGUAAAGUAUUAUGUUACGCCGUUCGGAUCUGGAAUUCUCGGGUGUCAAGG	0.741
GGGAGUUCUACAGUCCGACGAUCCAAGUCCUGUGCUACACAUCGUAUGUACCGAAUCGGAAAGGAAAAAGGUUUUUGGAAAGUAUUAUGUUACGCCGUUCGGAUCUGCACUUCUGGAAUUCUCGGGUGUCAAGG	-0.976
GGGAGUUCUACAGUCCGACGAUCGCAGGAAGUAGAAACAAAUGGAAAUGCUUCGGAUAGUGGCAGGGGUGGGGGUUGCUAAGGAAAGGGUGGGAUGGGAGUGGGUAAAGAGUUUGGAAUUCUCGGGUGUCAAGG	0.787
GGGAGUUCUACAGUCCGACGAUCUGUGGCCGCAGGACGAGUACAUCGUGGAGUACUCACUAGAGUAUGGCUUCCUUCGCCUGUCGCAGGCCACCCGCCAGCGCCUGAGCAUCCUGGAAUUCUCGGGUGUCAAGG	-0.0212
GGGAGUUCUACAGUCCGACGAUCCUCAAGUCCUGUGCUACACAUCGUAUGUACCGAAUCGGCCGGGGCCGGCCGGGGAAAGUAUUAUGUUACGCCGUUCGGAUCUGCACUUCCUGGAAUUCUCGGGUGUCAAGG	-0.406
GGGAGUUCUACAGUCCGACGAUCCCUGUGCUACACAUCGUAUGUACCGAAUCGGGCCCCCCCGGGCCCCCCCGGCCCCCCCGGAAAGUAUUAUGUUACGCCGUUCGGAUCUGCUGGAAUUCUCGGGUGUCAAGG	-0.0418
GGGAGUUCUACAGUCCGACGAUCUAGCAAGCCAAAUUACAGCAGCAGAUGGACCUGCAGAAAAAUCACAUUUUCCGUCUGACUCAAGGACUGCAAGAAGCUCUAGAUCGGGCUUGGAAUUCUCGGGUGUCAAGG	-1.99
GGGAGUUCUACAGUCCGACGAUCCAGCAGCAGAGUGAGUGGAUUUUAUUUUUCGUUAUUGUUGGUGGUUUAAAAAAUUCCCCCCAUGUAAUUAUUGUGAACACCUUGCUUUGUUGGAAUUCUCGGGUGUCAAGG	-0.13
